{"data": "Assay results collected from several papers", "note": "Several values in a cell are separate wells, animals, samples, runs or records. ± marks the error that the study gave."}
{"Structure (SMILES)": "Nc1ncc(-c2cc(-c3cnn(CC(F)(F)F)c3)ncc2F)nc1C(=O)NC1CNCC(F)C1 (centres unmarked)", "target": "MRCKA", "test": "KINOMEscan competition binding", "setting": "1 µM", "scale": "baseline: DMSO control", "measurement": "remaining binding", "value": "97%"}
{"Structure (SMILES)": "c1ccc(-c2n[nH]cc2-c2ccnc3ccccc23)nc1", "target": "KNS1 (Candida albicans)", "test": "kinase binding, MIB/MS competition", "test system": "Candida albicans lysate", "setting": "1 µM", "scale": "baseline: DMSO", "measurement": "log2 fold change", "value": 0.02}
{"Structure (SMILES)": "N[C@H]1CC[C@H](Nc2nccc(-c3cccnc3Oc3ccc(NC(=O)NC4CC4)c4ccccc34)n2)CC1", "target": "NCK1 and NCK2 (human)", "test": "kinobead competition pulldown", "test system": "HEK293/HCT116 lysate mixture", "setting": "10 µM, 1 h, 4 °C", "scale": "lower = stronger competition", "measurement": "log2 LFQ intensity", "value": "20 and 20.2 and 18.8 and 20.4"}
{"Structure (SMILES)": "C[n+]1cc(NC(=O)c2ccc3ccc4ccc(C(=O)Nc5cc6ccccc6[n+](C)c5)nc4c3n2)cc2ccccc21", "target": "telomeric antiparallel G-quadruplex DNA", "test": "UV melting", "setting": "6 µM, 10 mM potassium, together with: DNA 3 µM", "measurement": "delta Tm", "value": "> 40 °C"}
{"Structure (SMILES)": "C=CC(=O)Nc1cccc(Cn2ncc3cnc(Nc4cnn(CCOC)c4)nc32)c1", "target": "IRAK4 human", "test": "binding, KINOMEscan", "setting": "100 nM", "scale": "lower = stronger binding", "measurement": "percent of control", "value": "95%"}
{"Structure (SMILES)": "C=CC(=O)N1[C@H](c2ccc3c(c2)OCO3)c2[nH]c3ccccc3c2C[C@@H]1C(=O)N1CCN(C)CC1", "target": "human cyclin E1 N112C-3xFLAG:CDK2", "test": "co-IP with TMT proteomics, refers to: SAMHD1", "setting": "concentration not given, Q9Y3Z3", "scale": "baseline: wild type DMSO", "measurement": "relative co-enrichment", "value": "61%"}
{"Structure (SMILES)": "Fc1ccc(Nc2nc(NC3CCCCC3)c3ccccc3n2)cc1F", "target": "β2AR/β1AR ICL1 chimera", "test": "β-arrestin2 recruitment, antagonist, BRET", "scale": "baseline: isoprenaline maximal response", "measurement": "maximal inhibition", "value": "3.7%"}
{"Structure (SMILES)": "OB1c2sccc2C=NN1Cc1ccccc1", "target": "human pancreatic trypsin", "test": "enzyme activity, inhibitor", "measurement": "IC50", "value": "> 100 µM"}
{"Structure (SMILES)": "CSCc1cn(-c2cccc(C(=O)N3CCC(c4nc(-c5ccccc5)n[nH]4)CC3)c2)nn1", "target": "FSP1, ancestral", "test": "resazurin reduction, inhibitor", "setting": "pH 7.2, together with: NADH, resazurin", "measurement": "IC50", "value": "0.534 ± 0.06 µM"}
{"Structure (SMILES)": "CC[C@H](C)[C@H](NC(=O)[C@@H]1CCCN1C(=O)[C@@H](NC(=O)[C@H](C)N)C(C)C)C(=O)N[C@@H](C)C(=O)N[C@@H](CCC(N)=O)C(=O)N[C@@H](CCCCN)C(=O)N[C@@H](CO)C(=O)N[C@@H](CCC(=O)O)C(=O)N1CCC[C@H]1C(=O)N[C@@H](Cc1ccccc1)C(=O)N[C@@H](CCCCN)C(=O)N[C@@H](CCCCN)C(=O)N[C@@H](CCCCN)C(=O)N[C@@H](CCCCNC(=O)CCCCCNC(=S)Nc1ccc2c(c1)C(=O)OC21c2ccc(O)cc2Oc2cc(O)ccc21)C(N)=O", "target": "XIAP (human)", "test": "DIABLO peptide pull-down", "setting": "concentration not given, 100-fold competition", "scale": "baseline: empty beads", "measurement": "log2 fold change", "value": 8.24}
{"Structure (SMILES)": "Fc1ccc(Nc2nc(NC3CCCCC3)c3cc(C(F)(F)F)ccc3n2)cc1F", "target": "β2AR/β1AR ICL1 chimera", "test": "β-arrestin2 recruitment, antagonist, BRET", "scale": "baseline: isoprenaline maximal response", "measurement": "maximal inhibition", "value": "-1%"}
{"note": "Some of these lines once more:"}
{"Structure (SMILES)": "N[C@H]1CC[C@H](Nc2nccc(-c3cccnc3Oc3ccc(NC(=O)NC4CC4)c4ccccc34)n2)CC1", "target": "NCK1 and NCK2 (human)", "test": "kinobead competition pulldown", "test system": "HEK293/HCT116 lysate mixture", "setting": "10 µM, 1 h, 4 °C", "scale": "lower = stronger competition", "measurement": "log2 LFQ intensity", "value": "20 and 20.2 and 18.8 and 20.4"}
{"Structure (SMILES)": "C[n+]1cc(NC(=O)c2ccc3ccc4ccc(C(=O)Nc5cc6ccccc6[n+](C)c5)nc4c3n2)cc2ccccc21", "target": "telomeric antiparallel G-quadruplex DNA", "test": "UV melting", "setting": "6 µM, 10 mM potassium, together with: DNA 3 µM", "measurement": "delta Tm", "value": "> 40 °C"}
